Experimental data pooled from the literature.
Each numbered part is a random draw from the data of one study; scales do not carry over between parts. Positions count from the first letter of the parent shown.

Series 1
Target: RNA binding protein fox-1 homolog 2, RRM domain, GST-SBP tag (RBFOX2, Homo sapiens, UniProt O43251-10, residues 100-194)
Technique: RNA Bind-n-Seq
Molecule type: RNA
Medium: in vitro
Tested at: 365 nM
Setting: natural RNA segment, single round, ends assumed
Relative to: no-protein control
Reading: higher = stronger binding
Endpoint: RBNS enrichment (R)
Shared flanks, not repeated: GGGAGUUCUACAGUCCGACGAUC … UGGAAUUCUCGGGUGCCAA
Residues (chain): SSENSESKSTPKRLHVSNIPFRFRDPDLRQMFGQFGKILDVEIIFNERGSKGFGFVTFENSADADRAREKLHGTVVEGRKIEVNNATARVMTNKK
UCAAGAUUAUGAAACUUUGCUGUGGGCCCUGCCUUUCCUUCACUUCUUCCUGUUCACCCUGGUGGUGUAUGGGUGAGGUGGGAAGGUGACCCCCCCCCCAAAUAUAUAUC: 0.285
UUCCCAGGGUGAUUUCCUCAGUGCACAGGCAGCUCGAGAUGGAGGGAGGACAGCCACCAACUAGCUCACUCAGCAUUUUAAACUUGAGUUCCUUUGAUAUCUGAGUUUAU: 1.56
CUGUGUAAUUCAUUUUACAAUUUCAAAUUGUUCUGGUGCCAUAAAGUAUACAGACUACUUUAAAGAUUUCCAAAUCCCCUAAUUUACCCCACAACAGCAUGUAAUUUUAG: 3.79
CUGGUGUAGAGCACAAGCCUCUCCACCCUAGAGAAAUGCCUCUGUACCACGGCUACCAUGUGGAACCUUAACUUGCAGAAGGCUUGUUAACAAUUGUUUUGAGAGAGAUG: 0.306
ACCACCGUAUUUUUAAAGUAUUUUUAUGAUCUUCGUAUACUCACACUUCGCUUGUAUUGUAAAAGGAGGGUAUAUUUGCACUUAUGUAUACUUUGACAGUUUGCCAAGAU: 1.7
GGUGCUAGACAAGAAGGAAGCAGGUAAAGGGAUAGUUGCUUUGUCAUCCGUUUUUAAUUAUUUUAACUGACCCUUGACAAUCUUGUCAGCAAUAUAGGACUGUUGAACAA: 0.823
UCACCCAUUGUGAGAGUCACUUGGUCAAAUUUAGUUAAUGAGUCCAUUUUGAUCAUAAUGCACUCACACUAGUGUGUUUGAAUACUGACUGUCUGUCUGUCCAGUAAGGA: 0.385
CGAUGGCCAGCUGUCUCCCUCCGUGGCAUCUGCUAUUCAAAGAAGAUGGAGUGAGAGGGGCGCCAGAGUUUCAUGGGGGCUUUACUCAUUCAUUUCAUUUAGGGACUCUG: 0.335
CUAAGGAUGAGGGCUGUCAAACAGAAAAUGCUGAAGACUUUACAGCUGUGGGGUCCAAAACCCUAAGGGCUCCAAUCCCACCCACAUUCUUUCUCGGUCUUUGUCUCUCU: 0.368
CAGUAGCUUAUUUGAACUUGAGACCAUUGUAAGCAUGACCCAACCUACCACCCUGUUUUUACAUAUCCAAUUCCAGUAACUCUCAAAUUCAAUAUUUUAUUCAAACUCUG: 3.52

Series 2
Target: CCNB3, cyclin fold, Cln2 fusion (human)
Technique: yeast growth competition, sequencing
Medium: yeast
Setting: weak parent motif
Relative to: not given
Reading: higher = stronger binding
Endpoint: normalised enrichment score
Starting sequence: MICAL3 docking peptide (human); LQLRRQLSFSEDS; partner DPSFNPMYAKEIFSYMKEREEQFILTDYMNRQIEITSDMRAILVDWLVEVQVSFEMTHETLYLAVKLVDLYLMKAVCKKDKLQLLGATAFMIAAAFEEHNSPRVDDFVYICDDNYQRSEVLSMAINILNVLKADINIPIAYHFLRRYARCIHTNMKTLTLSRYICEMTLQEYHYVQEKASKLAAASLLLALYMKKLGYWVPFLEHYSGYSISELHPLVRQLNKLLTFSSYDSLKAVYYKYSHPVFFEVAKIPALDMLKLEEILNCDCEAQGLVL
LQLRRQLSQSEDS [F9Q]: 0.128
LQLLRQLSFSEDS [R4L]: 0.278
LQLRSQLSFSEDS [R5S]: -0.127
LQLRRQLSASEDS [F9A]: -0.173
LQNRRQLSFSEDS [L3N]: -0.363
LQLRRQLSFSIDS [E11I]: -0.169
LQLRRQLSGSEDS [F9G]: 0.283
LELRRQLSFSEDS [Q2E]: 0.227
LQLRRQHSFSEDS [L7H]: -0.00877
LQLRRQASFSEDS [L7A]: -0.0693
LQLRRQLSSSEDS [F9S]: -0.225

Series 3
Target: Phosphate system positive regulatory protein PHO4, full length, GST-tagged (PHO4, Saccharomyces cerevisiae, UniProt P07270, residues 1-312)
Technique: competition protein-binding microarray
Molecule type: double-stranded DNA, one strand shown
Medium: in vitro
Tested at: 2 µM
Setting: whole 60-bp probe, lowest competitor level
Together with: Cbf1 competitor, 0.05 µM
Reading: higher = stronger binding
Endpoint: fluorescence intensity
Shared flanks, not repeated: … GTCTTGATTCGCTTGACGCTGCTG
Residues (chain): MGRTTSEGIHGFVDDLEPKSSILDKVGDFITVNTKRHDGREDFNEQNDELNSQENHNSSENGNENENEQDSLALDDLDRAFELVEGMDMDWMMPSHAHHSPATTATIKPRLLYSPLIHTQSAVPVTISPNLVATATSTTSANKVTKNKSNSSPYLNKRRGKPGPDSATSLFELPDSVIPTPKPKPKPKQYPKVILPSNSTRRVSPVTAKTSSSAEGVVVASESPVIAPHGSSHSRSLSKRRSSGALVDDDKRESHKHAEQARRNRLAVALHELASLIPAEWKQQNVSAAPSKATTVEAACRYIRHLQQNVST
TGCAAGAAAAAATAGGTCGTGACAAATTCGCCCCTA: 5440 a.u.
TGAGCGCCATTAAAGCGCGTGCTGTCGTACTGGGTG: 11700 a.u.
CTAACGAAGGTTTGCCAGGTGGGTGACAAGCCAAGT: 5090 a.u.
AGCCGACGCCGTAGTCGCGTGCCGATGCCCTTAGCG: 7680 a.u.
CGGGGTTAAGTTTGCCCAGTGGGTGGCTTGCAGCAG: 4650 a.u.
GTCTTGTCTCATTGTCACATCACTTTCCCCACTTCA: 4860 a.u.
CAGTCTGATTGCCATCACGTGATGGTAACGTAAGTC: 13400 a.u.
AAAGCGGTAATTTGTCACTTAACTTCACATATCTAT: 3540 a.u.
CTTCAGTTTTTTCACCACGTGAAGAGAATATGGATA: 16500 a.u.
CTAACGAAGGTTTTTCACGTGGTCTACAAGCCAAGT: 12000 a.u.
CCCTCAAGTTTCTCTTCTGGCGATTTGGGAATTTAC: 3210 a.u.
CATACCCAACCTTTTCACGTGATATAAGATATTTGT: 12600 a.u.
GTCTTGTCTCATTGACGAGTGGGTGTCCCCACTTCA: 4200 a.u.
TCATCGCACATTTTGCACGATGAGGACACAGGAAAT: 9220 a.u.
AGGATCGTTGGTGCTCTCGTGATGGTTCGGTGGCGG: 5340 a.u.
GTCAATGCAGTCATCCTCGTGAAATCTGGAATGAAT: 6700 a.u.

Series 4
Molecule: PhoQ, residues 284 288 289 292 302 303 QWGLFV
Technique: Sort-seq
Refers to: YFP reporter
Medium: E. coli
Setting: PhoQ-PhoP variant library
Together with: 10 µM Mg2+
Relative to: high Mg2+ state
Reading: higher = stronger signaling
Endpoint: fold induction
PhoP, residues 12 14 15 18 19 TQALL (Escherichia coli, UniProt P23836): 6.76
PhoP, residues 12 14 15 18 19 NYFRM (Escherichia coli, UniProt P23836): 3.93
PhoP, residues 12 14 15 18 19 QYFSL (Escherichia coli, UniProt P23836): 2.76

A few entries again (series 3):
CATACCCAACCTTTTCACGTGATATAAGATATTTGT: 12600 a.u.
CCCTCAAGTTTCTCTTCTGGCGATTTGGGAATTTAC: 3210 a.u.
